Experimental data collected from several papers.
Each line is one published result; not all experiments were run side by side. ± gives the spread as reported.
Target: Cannabinoid receptor 2 (CNR2, Homo sapiens, UniProt P34972)

CCN(CC)CCOc1ccc(-c2nnn(Cc3ccc(OC)cc3)c2N)cc1  inhibition (radioligand binding; CHO; 10 µM, human, added: radioligand 10000 nM): -4.61%
CCOC(=O)[C@](CC)(CCCSCCOCCOCCNc1ccc([N+](=O)[O-])c2nonc12)NC(=O)c1ccc(C2CC2)c(Cc2ccc(F)cc2)n1  Ki ratio (radioligand binding; baseline: CB1 over CB2 (human)): 68
CCc1nnc(-c2c(OC)cc(-c3cnc4cc(-c5cnn(C)c5)ccn34)cc2OC)o1  inhibition (specific binding, agonist, radioligand binding; 10 µM; baseline: control specific binding): -2%
Cc1cc(-c2ccc3ccccc3c2)nnc1NCCN1CCN(C)CC1  antagonist activity (antagonist; concentration not given): negative
C/C(=N\OCCCN1CCCCC1)c1ccc(C(F)(F)F)cc1  inhibition (antagonist, cAMP; 10 µM): 27.6%
CCCCCn1cc(C(=O)c2cccc3c2CC(C)(C)C3)c2ccccc21  Emax (cAMP inhibition, agonist, CAMYEL BRET biosensor; added: forskolin 10 µM; baseline: reference agonist at wild type): 61.8 ± 3%
CCOC(=O)[C@](CC)(CCCSCCOCCOCCNC(=O)c1ccc(C(=O)[O-])c(C2=C3C=CC(=[N+](C)C)C=C3[Si](C)(C)c3cc(N(C)C)ccc32)c1)NC(=O)c1ccc(C2CC2)c(Cc2ccc(F)cc2)n1  koff (dissociation rate): 0.0045 ± 0.00133 s⁻¹
C[C@H](NCc1ccc(-c2ccc(C(F)(F)F)cc2)cc1)C(N)=O  inhibition (radioligand binding; 1 µM, added: 2.40 nM [3H]WIN-55,212-2): 11%
CCOC(=O)[C@](CC)(CCCSCCOCCOCCNC(=O)c1ccc(-c2c3ccc(=N)c(S(=O)(=O)O)c-3oc3c(S(=O)(=O)O)c(N)ccc23)c(C(=O)O)c1)NC(=O)c1ccc(C2CC2)c(Cc2ccc(F)cc2)n1  EC50 ratio (cAMP level; added: forskolin; baseline: CB1 over CB2 (human)): 64
Cc1cc(Nc2nc(C[C@@]3(C(=O)O)CCN(Cc4cccc(Cl)c4F)[C@H](C)C3)cc(C)c2F)[nH]n1  inhibition (inhibitor; 10 µM): -6.12%
CCOC(=O)C(CC)(CC)NC(=O)c1ccc(C2CC2)c(Cc2ccc(F)cc2)n1  Ki ratio (radioligand binding; baseline: CB1 over CB2 (human)): 27
Cc1ccc2c(n1)c(-c1cccc(S(C)(=O)=O)c1)c(C)n2C/C(F)=C/CN  inhibition (ligand displacement, radioligand; 10 µM): 10%
COC(=O)[C@@H](NC(=O)c1nn(Cc2ccc(F)cc2)c2cc(OCCCCNC(=N)N)ccc12)C(C)(C)C  Gi GTP turnover median (GTPase; baseline: FUB): 58%

A few entries again:
CCOC(=O)[C@](CC)(CCCSCCOCCOCCNC(=O)c1ccc(-c2c3ccc(=N)c(S(=O)(=O)O)c-3oc3c(S(=O)(=O)O)c(N)ccc23)c(C(=O)O)c1)NC(=O)c1ccc(C2CC2)c(Cc2ccc(F)cc2)n1  EC50 ratio (cAMP level; added: forskolin; baseline: CB1 over CB2 (human)): 64
